Results pooled from the literature.
Every numbered part comes from another study and shows a few of its results, in no order. Changes are numbered by the printed parent chain.

Sample 1 — method: aptamer microarray, sandwich; molecule type: DNA with 2'F-ANA; sample: in vitro; tested at: 200 nM; added: Cy3 exosite-II aptamer, 400 nM; reading: higher = stronger binding; quantity: mean fluorescence intensity; oligonucleotide: GGTTGGTGTGGTTGG
Target: Prothrombin, mature alpha-thrombin (F2, Homo sapiens, UniProt P00734)
Setting: whole 15-mer aptamer, many near background
2'F-ANA at 3 4 7 10 12: 491 a.u.
2'F-ANA at 1 4 7 8 9 10 13 14: 46.6 a.u.
2'F-ANA at 1 3 4 5 6 8 10 13: 57.5 a.u.
2'F-ANA at 1 2 4 5 6 7 9 10 12 13 14: 77.1 a.u.
2'F-ANA at 2 4 5 7 9 12 14: 49.1 a.u.

Sample 2 — target: CCNA1, cyclin fold, Cln2 fusion (human); method: yeast growth competition, sequencing; sample: yeast; setting: weak parent motif; reference: not given; reading: higher = stronger binding; quantity: normalised enrichment score
Starting sequence: INSM1 docking peptide (human); PKAIRKLHFEDEV
E10G: 0.806
A3I: 0.0745
H8E: 0.534
D11M: 0.313
D11F: 0.734

Further values, each from its own experiment — JUNB: JUNB, bZIP domain (human)
P1: JUN, bZIP domain (human); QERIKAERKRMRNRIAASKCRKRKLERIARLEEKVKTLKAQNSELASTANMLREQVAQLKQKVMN; partner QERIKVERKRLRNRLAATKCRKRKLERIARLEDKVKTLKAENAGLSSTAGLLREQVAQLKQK
P1 E44V
binding fitness (JUNB; DHFR protein complementation; yeast; single substitutions, most at no-binding floor; reference: wild-type JUN-FOS pair, higher = stronger binding): -1.16 natural log

PhoQ, residues 284 288 289 292 302 303 ASTSDA
fold induction (PhoP, residues 12 14 15 18 19 LWHVM (Escherichia coli, UniProt P23836); Sort-seq, item: YFP reporter; E. coli; PhoQ-PhoP variant library, added: 10 µM Mg2+; reference: high Mg2+ state, higher = stronger signaling): 7.97

P1 E33N
binding fitness (JUNB; DHFR protein complementation; yeast; single substitutions, most at no-binding floor; reference: wild-type JUN-FOS pair, higher = stronger binding): -1.13 natural log
